{"data": "Measurements of several laboratories", "target": "5-hydroxytryptamine receptor 2A (HTR2A, Homo sapiens, UniProt P28223)", "note": "Compare with care: the assays were run in different laboratories.", "chain of UniProt P28223 (whole entry, looked up)": "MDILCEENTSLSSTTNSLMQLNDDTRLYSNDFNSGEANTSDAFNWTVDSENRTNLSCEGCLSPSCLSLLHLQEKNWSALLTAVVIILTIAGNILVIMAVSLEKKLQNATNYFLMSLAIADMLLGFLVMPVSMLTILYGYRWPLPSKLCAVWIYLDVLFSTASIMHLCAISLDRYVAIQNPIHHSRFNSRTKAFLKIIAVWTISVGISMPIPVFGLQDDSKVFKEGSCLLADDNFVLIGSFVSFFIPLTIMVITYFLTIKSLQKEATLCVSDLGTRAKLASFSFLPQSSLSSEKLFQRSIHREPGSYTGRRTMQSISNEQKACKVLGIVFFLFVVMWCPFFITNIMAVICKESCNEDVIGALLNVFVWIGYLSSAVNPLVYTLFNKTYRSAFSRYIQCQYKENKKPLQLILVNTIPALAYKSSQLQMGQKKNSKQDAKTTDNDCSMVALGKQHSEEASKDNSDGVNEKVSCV"}
{"test": "radioligand binding", "conditions": "concentration not given, with: [3H]ketanserin", "inhibition [%]": 42.9, "SMILES": "CC1Cc2ccccc2N1C(=O)CN1CCN(Cc2ccccc2)CC1 (centres unmarked)"}
{"test": "ligand displacement", "conditions": "10 µM", "inhibition [%]": 55, "SMILES": "Cc1cccc(O[C@H]2CCC[C@@H](C(C)CNCc3ccncc3)C2)c1 (relative stereo)"}
{"test": "ligand displacement, radioligand", "conditions": "10 µM", "inhibition [%]": "< 10", "SMILES": "CCC(=O)N(C)c1ccc(Cl)c(Cl)c1"}
{"test": "radioligand binding", "conditions": "concentration not given, with: [3H]ketanserin", "inhibition [%]": 34.5, "SMILES": "CC1Cc2ccccc2N1C(=O)CN1CCN(c2ccccc2)CC1 (centres unmarked)"}
{"test": "ligand displacement, radioligand", "conditions": "10 µM", "inhibition [%]": -1, "SMILES": "CC(C)Cn1c(SCC(=O)N2CCc3ccccc3C2)nc2cc(Cl)ccc2c1=O"}
{"test": "ligand displacement, radioligand", "conditions": "70 µM", "inhibition [%]": -2, "SMILES": "C[Si]1(C[C@H](CN)CC(=O)O)CCCC1"}
{"test": "ligand displacement, radioligand", "conditions": "1 µM", "inhibition [%]": 9.2, "SMILES": "COc1ccc(S(=O)(=O)N2CCc3ccccc3C2)cc1N1CCN(C(=O)c2ccc(F)cc2C(F)(F)F)CC1"}
{"test": "radioligand binding", "conditions": "concentration not given, with: [3H]ketanserin", "inhibition [%]": 47.5, "SMILES": "c1ccc(OC[C@H]2CN(CCN3CCc4ccccc43)CCO2)nc1"}
{"test": "ligand displacement, radioligand", "conditions": "10 µM", "inhibition [%]": "< 50", "SMILES": "COc1ccc(C(=O)Nc2c(-c3cccs3)nc3ccccn23)cc1"}
{"test": "ligand displacement, radioligand", "conditions": "75 µM", "inhibition [%]": -1, "SMILES": "C[Si](C)(C)C[C@@H](CN)CC(=O)O"}
{"test": "ligand displacement, radioligand", "conditions": "1 µM", "inhibition [%]": -6, "SMILES": "O=C1c2sc(-c3ccc(N4CCC(F)C4)nc3F)nc2CCN1c1cccnc1 (centres unmarked)"}
{"note": "A few entries again:"}
{"test": "radioligand binding", "conditions": "concentration not given, with: [3H]ketanserin", "inhibition [%]": 42.9, "SMILES": "CC1Cc2ccccc2N1C(=O)CN1CCN(Cc2ccccc2)CC1 (centres unmarked)"}
